Assay results of several laboratories.
Compare with care: the assays were run in different laboratories. “And” joins repeats or separate records; there may be more than shown. ± marks the error that the study gave. In brackets after ≈: the same amount, converted by molar mass.
Sequence of UniProt P15735 (whole entry, looked up): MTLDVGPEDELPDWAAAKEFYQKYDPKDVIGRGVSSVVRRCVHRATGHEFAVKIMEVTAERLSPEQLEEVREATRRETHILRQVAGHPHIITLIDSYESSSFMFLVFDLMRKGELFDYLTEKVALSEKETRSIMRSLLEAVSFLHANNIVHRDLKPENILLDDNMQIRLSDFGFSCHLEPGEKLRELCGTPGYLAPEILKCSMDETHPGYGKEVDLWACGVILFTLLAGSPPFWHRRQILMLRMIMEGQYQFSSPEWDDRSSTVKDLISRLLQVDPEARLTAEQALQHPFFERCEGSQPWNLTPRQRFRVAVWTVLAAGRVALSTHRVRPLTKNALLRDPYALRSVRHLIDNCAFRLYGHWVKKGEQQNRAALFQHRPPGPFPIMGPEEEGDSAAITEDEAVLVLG

For `O=c1[nH]cc(C(c2ccccc2)c2c[nH]c(=O)[nH]c2=O)c(=O)[nH]1`, the inhibition was 4% (Human immunodeficiency virus 1; viral replication, inhibitor, ELISA; 1 µg/mL).
The IC50 of `Nc1nc(-c2ccccc2)nc2[nH]nc(Nc3ccc(OC(F)(F)F)cc3)c12` is reported as 13700 nM (coxsackievirus B3; viral cytopathic effect; HeLa).
The MIC of `Cc1c(CN(C)C(=O)/C=C/c2cnc3c(c2)CC(N)C(=O)N3)oc2ccccc12` (stereo not drawn) is reported as 16 µg/mL (≈ 41 µM) (Acinetobacter baumannii; broth microdilution; AR-0083).
`COc1ccc(-c2ccc(C(F)(F)F)cc2)c2c1C(C)=N[C@H](C)C2` gave an IC50 of 5110 nM (Plasmodium falciparum; parasite growth, SYBR Green; NF54; blood stage).
With `Cc1ccc(Nc2n[nH]c3nc(-c4ccc(F)cc4)nc(N)c23)cc1` the IC50 was 920 nM (rhinovirus B42; viral cytopathic effect; HeLa).
With `COc1cc(C(c2c[nH]c(=O)[nH]c2=O)c2c[nH]c(=O)[nH]c2=O)cc(OC)c1OC` the inhibition was 32% (Human immunodeficiency virus 1; viral replication, inhibitor, ELISA; 1 µg/mL).
`FC(F)(F)c1cccc(CNc2nc(NC3CCN(Cc4ccccc4)CC3)c3nc[nH]c3n2)c1`: “log2 fold change” -0.323 (Cryptococcus neoformans; RNA-seq, measured: INM1 (CNAG_01823) mRNA; 48 µg/mL, 3 h; reference: untreated wild type).
With `C=C(NC(=O)c1csc(-c2nc3c(cc2O)-c2nc(cs2)C(=O)NC(C(C)O)C(=O)NC(=C(C)OC)c2nc(cs2)C(=O)NC2c4nc(cs4)C(=O)NC(COC(=O)c4c5c6c(cccc6n4O)COC(=O)C(OC4CC(C)(O)C(N(C)C)C(C)O4)C2OC5)c2nc-3cs2)n1)C(N)=O` (stereo not drawn) the MIC50 was 7.8 ng/mL (≈ 0.00543 µM) (Streptococcus pneumoniae; penicillin-resistant, 10 isolates; serum 0%).
`CN1CCCNC(=O)c2cccc(c2)C(=O)NCCCN(C)CCCNc2cccc3c2C(=O)c2cccc(c2C3=O)NCCC1`: “log2 fold change” -0.662 (SAS; RNA-Seq, measured: ZNF263 mRNA; 1 µM, 6 h; reference: untreated cells).
`Nc1nc(-c2ccccc2)nc2[nH]nc(Nc3ccc(F)cc3F)c12` has an IC50 of 10 nM (rhinovirus B42; viral cytopathic effect; HeLa).
`C=CC(=O)Nc1cccc(Cn2ncc3cnc(Nc4cnn(CCOC)c4)nc32)c1`: “percent of control” 87% (MLK3 human; binding, KINOMEscan; 100 nM; lower = stronger binding).
The IC50 of `Nc1nc(-c2ccccc2)nc2[nH]nc(Nc3ccc(Cl)cc3)c12` is reported as 120 nM (coxsackievirus B3; viral cytopathic effect; HeLa).
Under “log2 fold change”, `COC1CN([C@H]2CC[C@H]([C@@]3(C)Oc4c(Cl)cc(C(=O)NCc5c(SC)cc(C)[nH]c5=O)c(C)c4O3)CC2)C1` is recorded as 0.807 (RNA-seq, measured: ZNF219 mouse homolog; mouse, HT-1376 xenograft, whole blood; dose not given; reference: vehicle).
`CC[C@H](C)[C@@H]1NC(=O)[C@@H]([C@@H](C)O)NC(=O)CNC(=O)[C@H](CC(=O)O)NC(=O)CNC(=O)[C@H](CC(=O)O)NC(=O)CNC(=O)[C@H]2CCCCN2C(=O)[C@@H](NC(=O)[C@H](CC(=O)O)NC(=O)/C=C/CCCCCCCCCC(C)C)CNC(=O)[C@@H]2CCCN2C1=O` gave an MIC of 4 µg/mL (≈ 3.21 µM) (Staphylococcus simulans; broth microdilution; 22, Mueller-Hinton broth, Mg2+ 10 mg/L; 16 h, 30 °C, with: Ca2+ 2.5 mM).
`CCCCCCCCCC(=O)N[C@@H](Cc1c[nH]c2ccccc12)C(=O)N[C@H](CC(N)=O)C(=O)N[C@@H](CC(=O)O)C(=O)N[C@@H]1C(=O)NCC(=O)N[C@@H](CCCNC(=O)OC2/C=C/CCCCC2)C(=O)N[C@@H](CC(=O)O)C(=O)N[C@H](C)C(=O)N[C@@H](CC(=O)O)C(=O)NCC(=O)N[C@H](CO)C(=O)N[C@@H]([C@H](C)CC(=O)O)C(=O)N[C@@H](CC(=O)c2ccccc2N)C(=O)O[C@@H]1C` (stereo partly drawn): “peak heat flow” 0 µW (Staphylococcus aureus; planktonic bacterial growth, isothermal microcalorimetry; MRSA; 2.5 µg/mL, 24 h, 37 °C).
For `CCCOC(=O)N1c2cc(CNC)ccc2[C@H](NC(=O)C(=O)Nc2ccc(Cl)c(F)c2)[C@H]1CNC(=N)N`, the IC80 was > 100 µM (HIV-1; viral infection, Env pseudovirus neutralization; TZM-bl, CRF01_AE).
`CC(C)OCCOCc1ccc(OCC(O)CN(N=O)C(C)C)cc1` (stereo not drawn) — result for “revertant fold increase”: 0.8 fold (Salmonella typhimurium; Ames test; TA100; 500 µg/plate, 30 % rat S9; reference: solvent control).
The IC50 of `CNS(=O)(=O)Nc1nccc(Cc2c(C)c3ccc(Oc4ncccc4F)cc3oc2=O)c1F` is reported as > 1000 nM (NCI-H82; cell viability; 7 days).
For `O=C(Nc1cnccc1-c1ccc([18F])cc1)c1ccnc(NC(=O)C2CC2)c1`, the SUV was 0.28 (mice, transgenic, GSK-3β, early-stage, spleen; intravenous, dose not given, 120 min, with: tariquidar 15 mg/kg i.v. pre-dose).
The IC50 of `Cc1ccc(Nc2n[nH]c3nc(-c4ccncc4)nc(N)c23)cc1` is reported as 70 nM (rhinovirus B42; viral cytopathic effect; HeLa).
The fold change of `Fc1ccc2c(c1)c1nc3ccc(Br)cc3c-1cn2Cc1cn(-c2ccccc2I)nn1` is reported as 2.1 (Giardia duodenalis trophozoites; UHPLC-Q-TOF-MS metabolomics, measured: 2-hexyldecanoic acid; IC50, 0.2142 h; reference: 0.25% DMSO).
`Nc1nc(-c2ccccc2)nc2[nH]nc(Nc3cccc(F)c3F)c12` has an IC50 of 30 nM (coxsackievirus B3; viral cytopathic effect; HeLa).
`O=c1[nH]cc(C(c2ccc(F)cc2)c2c[nH]c(=O)[nH]c2=O)c(=O)[nH]1` has an inhibition of 20% (Human immunodeficiency virus 1; viral replication, inhibitor, ELISA; 1 µg/mL).
`C[C@@H](CO)C(=O)OCCc1ccc(O)cc1` gave an inhibition of 19.6 ± 7.04% (Zika virus; viral replication, CCK-8; Vero C1008; 10 µM, 96 h).
With `Nc1ncc(-c2cc(-c3cnn(CC(F)(F)F)c3)ncc2F)nc1C(=O)NC1CNCC(F)C1` (stereo not drawn) the remaining binding was 100% (PIM2; KINOMEscan; 1 µM; reference: DMSO control).
`Nc1nc(-c2cccc(C(F)(F)F)c2)nc2[nH]nc(Nc3ccccc3)c12` gave an IC50 of 8100 nM (coxsackievirus B3; viral cytopathic effect; HeLa).
For `CC[C@H](C)[C@H](NC(=O)[C@H](Cc1ccc(O)cc1)NC(=O)[C@H](CCC(=O)O)NC(=O)CNC(=O)[C@H](CCC(=O)O)NC(=O)[C@H](CCCCN)NC(=O)[C@H](CCCCN)NC(=O)[C@H](CC(=O)O)NC(=O)[C@H](Cc1c[nH]cn1)NC(=O)[C@H](Cc1c[nH]cn1)NC(=O)[C@H](Cc1c[nH]cn1)NC(=O)[C@H](Cc1c[nH]cn1)NC(=O)[C@H](Cc1c[nH]cn1)NC(=O)[C@H](Cc1c[nH]cn1)NC(=O)[C@H](Cc1c[nH]cn1)NC(=O)[C@H](Cc1c[nH]cn1)NC(=O)[C@H](Cc1c[nH]cn1)NC(=O)[C@@H](N)Cc1c[nH]cn1)C(=O)N[C@@H](CCCCN)C(=O)N[C@@H](CC(C)C)C(=O)N[C@@H](CCCCN)C(=O)N[C@H](C(=O)N[C@H](C(=O)NCC(=O)N[C@@H](CCC(N)=O)C(=O)N[C@@H](CC(=O)O)C(=O)N[C@@H](CO)C(=O)N[C@@H](CO)C(=O)N[C@@H](CCC(=O)O)C(=O)N[C@H](C(=O)N[C@@H](Cc1c[nH]cn1)C(=O)N[C@@H](Cc1ccccc1)C(=O)N[C@@H](CCCCN)C(=O)N[C@H](C(=O)N[C@@H](CCCCN)C(=O)N[C@@H](CCSC)C(=O)N[C@H](C(=O)N[C@H](C(=O)N[C@@H](Cc1c[nH]cn1)C(=O)N[C@@H](CC(C)C)C(=O)N[C@@H](CCCCN)C(=O)N[C@@H](CCCCN)C(=O)N[C@@H](CC(C)C)C(=O)N[C@@H](CCCCN)C(=O)N[C@@H](CCC(=O)O)C(=O)N[C@@H](CO)C(=O)N[C@@H](Cc1ccc(O)cc1)C(=O)N[C@@H](CS)C(=O)N[C@@H](CCC(N)=O)C(=O)N[C@@H](CCCNC(=N)N)C(=O)N[C@@H](CCC(N)=O)C(=O)O)[C@@H](C)O)[C@@H](C)O)C(C)C)[C@@H](C)CC)[C@@H](C)CC)C(C)C`, “climbing mean difference” read -14 (Drosophila melanogaster; α-synuclein A53T transgenic; 60 µM, 4 days post eclosion, unit not given; reference: untreated).
`COc1cccc2c(-c3ccc(O)c4c3CC(C)(C)N=C4)ccc(OC(C)C)c12` gave an IC50 of 414.8 ± 3.7 nM (Plasmodium falciparum; asexual parasite proliferation, SYBR Green I fluorescence; HB3).
`CCN(CC)CC#CCNc1ccnc2cc(Cl)ccc12` gave a revertants of 25 revertants/well (Salmonella typhimurium; mini-Ames test; TA100; 125.0 µg/well, without S9).
The IC50 of `CNc1nc(-c2ccccc2)nc2[nH]nc(Nc3ccc(F)cc3)c12` is reported as 3100 nM (coxsackievirus B3; viral cytopathic effect; HeLa).
`CC(C)(C)NCC(SS(=O)(=O)O)c1ccccc1` (stereo not drawn): “spleen weight decrease” 14% (Schistosoma mansoni; perfusion day 52; infected Swiss Webster mice; 400 mg/kg single dose, 1248 h, dosed day 7 post-infection; reference: vehicle control).
The protein level of `Cc1ncsc1-c1ccc(CNC(=O)[C@@H]2C[C@@H](O)CN2C(=O)[C@@H](NC(=O)CN2CCN(C3CN(CCNC(=O)C[C@@H]4N=C(c5ccc(Cl)cc5)c5c(sc(C)c5C)-n5c(C)nnc54)C3)CC2)C(C)(C)C)cc1` is reported as 12.2% and 13.5% and 11% and 12.3% (Spodoptera frugiperda; degrader, targeted LC-MS, measured: BRD3; Sf9; 0.1 µM).
With `Cc1cccc2c1N(C(=O)n1ccnn1)CC2` the germination rate was 60.5% and 77.3% and 96.8% and 64.3% and 66.7% and 76.1% and 91.2% (Striga hermonthica; seeds; 100 µM, with: 10 nM (±)-GR24).
The IC50 of `Cc1nn(-c2cccc(N)c2)c(=O)c2cnc(Nc3ccc(N4CCNCC4)cc3)nc12` is reported as 3650 nM (Phosphorylase b kinase gamma catalytic chain, liver/testis isoform (PHKG2, Homo sapiens, UniProt P15735); kinase activity, inhibitor, SelectScreen kinase profiling).
Under “log2 fold change”, `Cc1ncsc1-c1ccc(C(C)NC(=O)C2CC(O)CN2C(=O)C(NC(=O)CCCCCCCCCCN2CCCC(Nc3ncc(Cl)c(Nc4ccccc4S(=O)(=O)C(C)C)n3)C2)C(C)(C)C)cc1` (stereo not drawn) is recorded as -1.84 (22Rv1; RNA-seq, measured: RAD52 mRNA; concentration not given; reference: DMSO).
`CC(C)C[C@H](NC(=O)[C@H](Cc1ccc(O)cc1)NC(=O)[C@@H](CCCNC(=N)N)NC(=O)[C@@H](CO)NC(=O)[C@H](Cc1ccccc1)NC(=O)[C@H](CC1CCCCC1)NC(=O)[C@H](CC(=O)O)NC(=O)CN1CCN(CC(=O)O)CCN(CC(=O)O)CCN(CC(=O)O)CC1)C(=O)N[C@@H](Cc1c[nH]c2ccccc12)C(=O)N[C@@H](CO)C(=O)O` [copper-64 labelled] has an activity concentration of 487 Bq/mL and 382 Bq/mL and 695 Bq/mL and 403 Bq/mL and 287 Bq/mL and 351 Bq/mL (human, thyroid; concentration not given, 24 h).

Repeated from above:
The fold change of `Fc1ccc2c(c1)c1nc3ccc(Br)cc3c-1cn2Cc1cn(-c2ccccc2I)nn1` is reported as 2.1 (Giardia duodenalis trophozoites; UHPLC-Q-TOF-MS metabolomics, measured: 2-hexyldecanoic acid; IC50, 0.2142 h; reference: 0.25% DMSO).
The IC50 of `CNc1nc(-c2ccccc2)nc2[nH]nc(Nc3ccc(F)cc3)c12` is reported as 3100 nM (coxsackievirus B3; viral cytopathic effect; HeLa).
The IC50 of `Cc1nn(-c2cccc(N)c2)c(=O)c2cnc(Nc3ccc(N4CCNCC4)cc3)nc12` is reported as 3650 nM (Phosphorylase b kinase gamma catalytic chain, liver/testis isoform (PHKG2, Homo sapiens, UniProt P15735); kinase activity, inhibitor, SelectScreen kinase profiling).
The IC50 of `Cc1ccc(Nc2n[nH]c3nc(-c4ccncc4)nc(N)c23)cc1` is reported as 70 nM (rhinovirus B42; viral cytopathic effect; HeLa).
`CCN(CC)CC#CCNc1ccnc2cc(Cl)ccc12` gave a revertants of 25 revertants/well (Salmonella typhimurium; mini-Ames test; TA100; 125.0 µg/well, without S9).
